Assay results pooled from the literature.
Lines come from different studies, so protocols differ. Numbers after ± are the reported error.

Compound	host	sample	route	dose	time	notes	Tmax
CSc1ccccc1C(=O)NCCn1cc(C(=O)NCc2cccc(C)n2)c(=O)c2cc3c(cc21)OC(F)(F)O3	Sprague-Dawley rat, male	whole blood	intramuscular	30 mg/kg of parent drug	–	–	1.17 ± 0.44 h
CN1CCC[C@H](CN2c3ccccc3Sc3ccccc32)C1.Cl	Wistar rat female	lung	oral	16 mg/kg	–	–	6 h
N=C(N)NCCNC(=O)C1(Nc2ccccc2)CCN(Cc2ccccc2)CC1	female Sprague-Dawley rats	plasma	oral	50 mg/kg	–	–	0.2 h
C=CC(=O)N1CCC[C@@H](n2nc(-c3ccc(Oc4ccccc4)cc3)c3c(N)ncnc32)C1	Wistar rat	plasma	oral	dose not given	–	suspension	2.5 h
Cc1cccc(CNC(=O)c2cn(CCNC(=O)c3ccccc3S)c3cc4c(cc3c2=O)OC(F)(F)O4)n1	Sprague-Dawley rat, male	plasma	intravenous	5 mg/kg of parent compound	–	–	0.083 h
CCc1cc(C(=O)NC)c2nccc(N3CCc4c(cc(Cn5ccnc5)cc4-c4cn(C)nc4C(F)(F)F)C3=O)c2c1	Sprague Dawley rat, male	plasma	oral	100 mg/kg once daily	7 days	–	1.8 h
O=C1c2ccncc2C(=O)c2c1[nH]c1ccccc21	Sprague-Dawley rat, male	plasma	intravenous	5 mg/kg	–	–	0.08 h
CNC(=O)c1cccc(-c2ccc([C@@H](O)[C@H]3O[C@H](CO)[C@@H](O)[C@H](O)[C@@H]3O)c(C)c2)c1	Sprague-Dawley rat, male	plasma	intravenous	3 mg/kg	–	–	0.083 h
O=C(O)C1=CO[C@@H](O[C@@H]2O[C@H](CO)[C@@H](O)[C@H](O)[C@H]2O)[C@@H]2C(CO)=CC[C@H]12	Sprague-Dawley rat	internal jugular vein plasma	oral	500 mg/kg Eu + 217 mg/kg Pc extract	–	dosed as combined Eu and Pc extracts	2.5 ± 0.87 h

Repeated from above:
Compound	host	sample	route	dose	time	notes	Tmax
CSc1ccccc1C(=O)NCCn1cc(C(=O)NCc2cccc(C)n2)c(=O)c2cc3c(cc21)OC(F)(F)O3	Sprague-Dawley rat, male	whole blood	intramuscular	30 mg/kg of parent drug	–	–	1.17 ± 0.44 h
